Published values collected from several papers.
Parts stem from different laboratories: compare values within a part only. Substitutions count along the parent as printed.

Study 1 — method: universal PBM; molecule type: double-stranded DNA, one strand shown; sample: in vitro; tested at: 600 nM; reading: higher = stronger binding
Target: Sal-like protein 4, full length isoform A (SALL4, Homo sapiens, UniProt Q9UJQ4, residues 1-1053)
Sequence of UniProt Q9UJQ4 (whole entry, looked up): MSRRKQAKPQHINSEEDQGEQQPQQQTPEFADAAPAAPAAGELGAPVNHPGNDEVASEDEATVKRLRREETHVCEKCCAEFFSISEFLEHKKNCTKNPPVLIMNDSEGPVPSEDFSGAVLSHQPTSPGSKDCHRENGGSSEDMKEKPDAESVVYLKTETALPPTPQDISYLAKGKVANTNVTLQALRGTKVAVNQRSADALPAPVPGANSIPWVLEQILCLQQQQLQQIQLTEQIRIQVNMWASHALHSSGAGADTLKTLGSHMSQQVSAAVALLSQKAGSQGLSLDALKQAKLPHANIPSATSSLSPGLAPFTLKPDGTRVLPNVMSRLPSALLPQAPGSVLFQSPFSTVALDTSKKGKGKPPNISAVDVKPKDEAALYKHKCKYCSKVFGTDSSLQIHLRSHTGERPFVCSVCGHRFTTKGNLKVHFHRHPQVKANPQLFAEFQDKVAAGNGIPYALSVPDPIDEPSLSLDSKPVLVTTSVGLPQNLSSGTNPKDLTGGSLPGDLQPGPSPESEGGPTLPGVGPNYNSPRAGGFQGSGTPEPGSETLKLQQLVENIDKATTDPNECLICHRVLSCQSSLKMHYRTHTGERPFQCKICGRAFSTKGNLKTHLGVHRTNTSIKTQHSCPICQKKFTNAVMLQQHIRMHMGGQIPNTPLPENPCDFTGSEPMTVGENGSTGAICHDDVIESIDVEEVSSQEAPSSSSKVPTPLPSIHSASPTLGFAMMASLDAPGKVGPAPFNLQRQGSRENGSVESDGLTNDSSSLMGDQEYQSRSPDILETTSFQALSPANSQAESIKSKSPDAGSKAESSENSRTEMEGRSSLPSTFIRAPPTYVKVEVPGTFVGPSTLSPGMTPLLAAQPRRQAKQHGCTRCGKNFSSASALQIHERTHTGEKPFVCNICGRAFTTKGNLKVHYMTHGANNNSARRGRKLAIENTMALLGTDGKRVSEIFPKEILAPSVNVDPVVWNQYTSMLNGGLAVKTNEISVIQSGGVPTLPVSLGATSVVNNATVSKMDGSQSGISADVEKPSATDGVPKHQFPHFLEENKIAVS
Setting: 8-mer, flanks averaged, mean of replicates
`ACCGAGTA` has an E-score of -0.0999.
For `AGAATGGC`, the E-score was -0.0464.
`GAACGGAA` gave an E-score of -0.151.
With `AGCGTACG` the E-score was -0.0699.
For `GGTATAGA`, the E-score was 0.145.
The E-score of `GAATATGC` is reported as 0.223.
The E-score of `ACTGAGGA` is reported as -0.105.
For `ACTGGGCT`, the E-score was -0.248.
With `GGATTGAA` the E-score was 0.109.
The E-score of `ATTTGAGG` is reported as 0.0725.
With `AGTGCCAG` the E-score was -0.309.
`AGAGTGTC` gave an E-score of 0.0512.
The E-score of `ATCCCTCA` is reported as -0.0978.
The E-score of `CCCATTAA` is reported as 0.128.
For `AACACTCT`, the E-score was 0.134.
`CATTCACA` gave an E-score of 0.211.
With `AGAGAGCC` the E-score was -0.207.
`GGCCCGTA` gave an E-score of -0.279.

Study 2 — method: protein-binding microarray; molecule type: double-stranded DNA, one strand shown; sample: in vitro; tested at: 2200 nM top; setting: 60-bp whole probe; added: salmon DNA 0.4 mg/ml; relative to: random background probes; reading: higher = stronger binding; all sequences stand within: GCCTAGCAC … GTCTTGATTCGCTTGACGCTGCTG
Target: Interferon regulatory factor 7, full length, phosphomimetic (IRF7, Homo sapiens, UniProt Q92985, residues 1-503, S471D/S472D/S475D/S476D/S477D/S483D/S484D/S487D)
Sequence of UniProt Q92985 (whole entry, unmodified, looked up): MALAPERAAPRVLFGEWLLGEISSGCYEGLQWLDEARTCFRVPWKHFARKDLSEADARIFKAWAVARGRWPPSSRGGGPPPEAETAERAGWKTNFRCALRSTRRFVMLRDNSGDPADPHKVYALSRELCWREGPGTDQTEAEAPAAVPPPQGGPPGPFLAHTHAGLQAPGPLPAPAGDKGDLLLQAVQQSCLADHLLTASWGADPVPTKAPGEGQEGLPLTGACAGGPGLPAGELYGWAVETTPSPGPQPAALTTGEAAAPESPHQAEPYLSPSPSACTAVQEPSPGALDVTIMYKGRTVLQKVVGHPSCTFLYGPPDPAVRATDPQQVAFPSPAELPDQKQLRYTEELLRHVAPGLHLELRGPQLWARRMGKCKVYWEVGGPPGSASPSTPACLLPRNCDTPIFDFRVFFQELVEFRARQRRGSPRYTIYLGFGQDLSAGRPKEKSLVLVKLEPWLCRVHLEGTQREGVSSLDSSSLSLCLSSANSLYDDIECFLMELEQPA
`TCATTCCTCTCACCTCGGACTGTGCTA`: “fitted relative affinity” 2.34 z-score.
For `AGTGATAACTTTTTTTTTTCGTGCTAG`, “fitted relative affinity” read 0.851 z-score.
For `TGAGATATCAGTATCGATTAGTGCTAG`, “fitted relative affinity” read -0.181 z-score.
`TCAAGGTTTTCTCTGGTACTGTGCTAG` — result for “fitted relative affinity”: 0.382 z-score.
`TCTGTTTTTGCTTTCCTTTAGTGCTAG` — result for “fitted relative affinity”: 5.92 z-score.
`TCATTTGTCATCTATAATACTGTGCTA` — result for “fitted relative affinity”: 1.49 z-score.
`TTAGGTATCTTACTGCTTTAGTGCTAG` — result for “fitted relative affinity”: 0.236 z-score.
For `GACGGTTCCGGTTTCGGGAAGTGCTAG`, “fitted relative affinity” read 4.52 z-score.
Under “fitted relative affinity”, `TTAGGACTGGGGACCGGGTTAGTGCTA` is recorded as -1.02 z-score.
`GACTATTTCAGTTTCGAGACGTGCTAG`: “fitted relative affinity” 5.25 z-score.
Under “fitted relative affinity”, `GACGGTATCGGTCTCGGGGCGTGCTAG` is recorded as -0.0155 z-score.
`GACGGTTTCCTTTTCCTGAAGTGCTAG`: “fitted relative affinity” 5.17 z-score.
Under “fitted relative affinity”, `TTGGGACTGGACTATCGGTTAGTGCTA` is recorded as -0.492 z-score.
For `TTAGATTTCAGACGGGATTAGTGCTAG`, “fitted relative affinity” read -0.186 z-score.
`GACGAACTGTGGTTTCGAGACGTGCTA`: “fitted relative affinity” 1.93 z-score.

Study 3 — target: CCNF, cyclin fold, Cln2 fusion (human); method: yeast growth competition, sequencing; sample: yeast; setting: strong parent motif; relative to: not given; reading: higher = stronger binding
Starting sequence: ITGB3BP docking peptide (human); MPVKRSLKLDGLL; partner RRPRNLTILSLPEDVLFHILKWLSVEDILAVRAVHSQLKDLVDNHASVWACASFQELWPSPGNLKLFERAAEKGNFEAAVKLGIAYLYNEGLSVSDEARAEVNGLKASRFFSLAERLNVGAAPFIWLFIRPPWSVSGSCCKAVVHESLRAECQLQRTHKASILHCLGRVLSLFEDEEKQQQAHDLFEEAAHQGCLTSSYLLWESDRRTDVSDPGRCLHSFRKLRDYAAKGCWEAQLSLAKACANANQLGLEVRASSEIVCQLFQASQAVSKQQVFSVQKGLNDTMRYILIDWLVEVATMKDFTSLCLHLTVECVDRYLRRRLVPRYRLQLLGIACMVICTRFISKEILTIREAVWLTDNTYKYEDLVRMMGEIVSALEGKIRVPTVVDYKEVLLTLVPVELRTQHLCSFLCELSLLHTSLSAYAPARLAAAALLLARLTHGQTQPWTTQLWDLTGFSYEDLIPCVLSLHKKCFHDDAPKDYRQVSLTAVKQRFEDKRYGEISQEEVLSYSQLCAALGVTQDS
For `P2A`, “normalised enrichment score” read 5.98.
`R5A L7A`: “normalised enrichment score” 0.255.
For `G11A`, “normalised enrichment score” read 4.74.
For `V3A`, “normalised enrichment score” read 5.11.
For `R5A`, “normalised enrichment score” read 0.501.
Under “normalised enrichment score”, `M1A` is recorded as 3.35.
`L7A` — result for “normalised enrichment score”: 1.58.
Under “normalised enrichment score”, `L13A` is recorded as 5.42.
Under “normalised enrichment score”, `L9F` is recorded as 8.13.
`R5K`: “normalised enrichment score” 0.879.

Other studies, line by line
The fold induction of `PhoQ, residues 284 288 289 292 302 303 AAQSYM` is reported as 4.59 (PhoP, residues 12 14 15 18 19 AGCRL (Escherichia coli, UniProt P23836); Sort-seq, refers to: YFP reporter; E. coli; PhoQ-PhoP variant library, added: 10 µM Mg2+; relative to: high Mg2+ state, higher = stronger signaling).
